Results pooled from the literature.
Parts stem from different laboratories: compare values within a part only. Positions count from the first letter of the parent shown.

Study 1
Target: CCND2, cyclin fold, Cln2 fusion (human)
Technique: yeast growth competition, sequencing
Matrix: yeast
Notes: weak parent motif
Reference: not given
Direction: higher = stronger binding
Starting sequence: E2F7 docking peptide (human); SSAQRRLEIPSGG
| Substitution | normalised enrichment score |
| --- | --- |
| P10A | 0.0726 |
| R5K I9L | 0.151 |
| I9A | 0.669 |
| S1A | 0.401 |
| Q4A | 0.0953 |
| L7A | 0.000733 |
| R5K I9F | 0.254 |
| S2A | -0.178 |

Study 2
Target: Myc proto-oncogene protein, bHLH-zipper, MAX partner unstated (MYC, Homo sapiens, UniProt P01106, residues 368-449)
Chain of UniProt P01106 (368-449, looked up): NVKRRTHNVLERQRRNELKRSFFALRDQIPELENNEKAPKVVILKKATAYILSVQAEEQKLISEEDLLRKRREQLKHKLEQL
Technique: protein-binding microarray
Molecule type: double-stranded DNA, one strand shown
Matrix: in vitro
Concentration: not given
Notes: k-mer, scored over probes, only values ≥0.25
Direction: higher = stronger binding
| Oligonucleotide | E-score |
| --- | --- |
| CAACCACG | 0.41 |
| AACACGGG | 0.304 |
| CACGATGG | 0.356 |
| CACACGTG | 0.495 |
| CTCGACAC | 0.272 |
| AGCCACGC | 0.45 |
| AAACACGC | 0.408 |
| AAGACATG | 0.262 |
| CGTGGGCA | 0.37 |
| CCGCGCGG | 0.358 |
| CACGAGTC | 0.406 |
| GGCCACGA | 0.353 |
| ACGTGTAT | 0.423 |
| CACGTTGG | 0.362 |
| CATGCGGG | 0.451 |

Study 3
Target: Histone acetyltransferase KAT6A, both winged helices, GST fusion (KAT6A, Homo sapiens, UniProt Q92794, residues 1-181)
Technique: protein binding microarray
Molecule type: double-stranded DNA, one strand shown
Matrix: in vitro
Concentration: not given
Notes: 8-mer, flanks averaged, mean of 2 arrays, mostly near background
Reference: not given
Direction: higher = stronger binding
Residues (chain): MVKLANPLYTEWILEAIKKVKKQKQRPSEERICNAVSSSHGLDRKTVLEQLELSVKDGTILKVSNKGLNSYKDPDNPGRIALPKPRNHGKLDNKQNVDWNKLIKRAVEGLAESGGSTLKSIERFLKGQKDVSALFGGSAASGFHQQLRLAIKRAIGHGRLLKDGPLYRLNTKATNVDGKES
| Oligonucleotide | E-score |
| --- | --- |
| AATGTTGC | 0.00156 |
| ATCATGTC | 0.00564 |
| CACGTCAG | -0.151 |
| ACCCATCA | -0.15 |
| CGCATGTA | 0.151 |
| AATGATCC | -0.0632 |
| GAAGGGGA | -0.192 |
| TTCTCAAA | -0.208 |
| CCACGGTA | 0.211 |
| CACTCAAA | -0.0675 |
| AGTAGTTC | 0.0195 |
| GTCAGCAA | -0.081 |
| AGGTGGGA | -0.226 |
| CACGCGTA | 0.257 |
| CGGTTTAA | 0.181 |
| AATCTCGC | 0.0543 |
| AAGATTCT | -0.13 |
| CCAGCCCA | -0.228 |
| AGAAAAGG | -0.343 |
| CCGCGACA | 0.227 |
| ACATGGAT | 0.00842 |
| ACCGGTAG | 0.189 |
| AGACCAGA | -0.165 |
| GAGGTTAC | 0.0128 |

Single results of other studies
| Substance | target | assay | test system | conditions | scale | measurement | result |
| --- | --- | --- | --- | --- | --- | --- | --- |
| PhoQ, residues 284 288 289 292 302 303 TSTLRA | PhoP, residues 12 14 15 18 19 SYFRT (Escherichia coli, UniProt P23836) | Sort-seq, refers to: YFP reporter | E. coli | PhoQ-PhoP variant library, added: 10 µM Mg2+ | reference: high Mg2+ state, higher = stronger signaling | fold induction | 9.54 |

Some of these lines once more (study 3):
| Oligonucleotide | E-score |
| --- | --- |
| AATGATCC | -0.0632 |
| GAAGGGGA | -0.192 |
| TTCTCAAA | -0.208 |
| CCACGGTA | 0.211 |
